# Measurements pooled from the literature.
# Protocols differ between the studies behind these lines. Values joined by “and” are separate records of one study, mostly repeats; a detail may differ. ± marks the error that the study gave.
SMILES,cell line,test,conditions,scale,endpoint,value
CNC(=S)N/N=C/c1ccc(OCc2ccccc2)cc1,IMR-32,measured: GPX3,"50 µg/mL, 24 h",higher = more activity,glutathione peroxidase activity (OD450),0.01 a.u.
CC1OC2OC3C4=C(OC3(C)C12O)C(=O)c1c(O)cccc1C4=O (stereo not shown),A549 and Vero,MTT,,relative to: CC50 Vero over EC50 A549,selectivity index,2.35
O=C(C[Se]C(=O)c1cccnc1Nc1cccc(C(F)(F)F)c1)Nc1cccc(C(F)(F)F)c1,NCI60 leukaemia subpanel,NCI60 five-dose screen,,,CC50,10.2 µM
CCC1=NC2CC3(C(=O)N(OC)c4ccccc43)C3OCC2C1C3O (stereo not shown),HT-22,CCK-8,"up to 100 µM, 24 h",,viability,no effect
CC(C)(C)C(=O)OCOP(=O)(OCOC(=O)C(C)(C)C)C1CCCN(O)C1=O (stereo not shown),CAKI-1,,,,TGI,> 100 µM
CC(=O)NCSC[C@H](NC(=O)[C@@H]1CCCN1C(=O)[C@H](C)NC(=O)[C@@H](NC(=O)CNC(=O)[C@@H](NC(=O)[C@H](Cc1c[nH]c2ccccc12)NC(=O)[C@H](C)NC(=O)CNC(=O)[C@H](CO)NC(=O)[C@H](C)NC(=O)[C@@H]1CCCN1C(=O)[C@H](Cc1c[nH]c2ccccc12)NC(=O)[C@H](C)NC(=O)[C@H](C)NC(=O)[C@@H](N)Cc1ccc(O)cc1)[C@@H](C)O)[C@@H](C)O)C(=O)N[C@@H](CO)C(=O)N[C@@H](C)C(=O)NCC(=O)N[C@H](C(=O)NCCOCCOCCOCCOCCOCCOCCOCCOCCOCCOCCOCCOCCC(=O)N[C@@H](CS)C(N)=O)[C@@H](C)O,H2126 lung adenocarcinoma,"cell binding, phage binding, measured: output/input phage","10 min, 37 °C",relative to: control phage,selectivity ratio,11 ± 5.8
O=C(C[Se]C(=O)c1ccco1)Nc1cccc(C(F)(F)F)c1,NCI60 melanoma subpanel,"cytotoxicity, inhibitor",five-dose,,CC50,32.5 µM
CC[C@H](C)[C@H](NC(=O)[C@H](C)NC(=O)CNC(=O)[C@H](Cc1ccccc1)NC(=O)[C@H](CC(N)=O)NC(=O)[C@H](CC(N)=O)NC(=O)[C@H](CO[C@@H]1O[C@H](CO)[C@@H](O)[C@H](O)[C@H]1NC(C)=O)NC(=O)[C@H](CO)NC(=O)[C@H](Cc1c[nH]cn1)NC(=O)[C@@H](NC(=O)[C@H](CC(C)C)NC(=O)[C@H](Cc1ccccc1)NC(=O)[C@H](CC(N)=O)NC(=O)[C@H](C)NC(=O)[C@@H](N)CC(C)C)C(C)C)C(=O)N[C@@H](CC(C)C)C(N)=O,INS-1,MTT,"1 equivalents to hIAPP, 24 h, together with: hIAPP 1 µM",,viability,64.9% and 67%
COc1ccccc1-c1ccncc1C(=O)Nc1nnc(OCc2ccc(Cl)cc2)s1,RPE-1 BRCA1 WT parental,,"0.06 µM, run 1",relative to: untreated,colony survival,86.1%
CC1CCC2C(C)C(OC(=O)CCC(=O)N3CCC(Nc4ccc(S(=O)(=O)NC(=O)c5ccc(N6CCN(CC7=C(c8ccc(Cl)cc8)CC(C)(C)CC7)CC6)cc5Oc5cnc6[nH]ccc6c5)cc4[N+](=O)[O-])CC3)OC3OC4(C)CCC1C32OO4 (stereo not shown),THP-1,"annexin V/PI flow cytometry, measured: annexin V+/PI+","0.2 µM, 24 h",,late apoptotic cells,3.5%

# Some of these lines once more:
SMILES,cell line,test,conditions,scale,endpoint,value
CCC1=NC2CC3(C(=O)N(OC)c4ccccc43)C3OCC2C1C3O (stereo not shown),HT-22,CCK-8,"up to 100 µM, 24 h",,viability,no effect
